Results pooled from the literature.
Every numbered part comes from another study and shows a few of its results, in no order.

Sample 1
Target: RING finger protein unkempt homolog, zinc fingers 1-6, GST-SBP tag (UNK, Homo sapiens, UniProt Q9C0B0, residues 30-357)
Method: RNA Bind-n-Seq
Molecule type: RNA
Matrix: in vitro
Tested at: not given
Setting: RNA with constant flanks, human-mouse chimeric sites, ends assumed
Reference: input RNA pool
Reading: higher = stronger binding
Shared flanks, not repeated: GGGAGUUCUACAGUCCGACGAUC … CAACAGAGGAUUGAGCAUCA
Construct (chain): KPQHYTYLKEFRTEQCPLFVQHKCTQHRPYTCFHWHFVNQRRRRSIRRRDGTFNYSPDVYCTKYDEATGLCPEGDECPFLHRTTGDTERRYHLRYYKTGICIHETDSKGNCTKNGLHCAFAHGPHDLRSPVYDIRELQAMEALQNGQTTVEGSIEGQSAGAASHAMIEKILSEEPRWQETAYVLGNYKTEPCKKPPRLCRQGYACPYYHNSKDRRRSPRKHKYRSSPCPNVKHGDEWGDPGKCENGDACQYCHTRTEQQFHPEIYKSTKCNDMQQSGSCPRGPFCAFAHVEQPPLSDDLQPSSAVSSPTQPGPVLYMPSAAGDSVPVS
Sequence | bound/input enrichment [ratio]
GGAAGUACAAUGAUGGAGAUUGAUGGUGACAAAGGCAAACAAGGCGGGCCCACCUACUACAUAGACACCAAUGCCCUCCGCGUGCCCAGGGAGAACAUGGAGGCCAUUUCACCUCUAAAG | 0.338
AAAGAAAAUGGAGAAGUAAAGAUUUUGCUGAAAAGUGGGAAGGAGAAACCAAAAACAAAUAUAGAAGACUUACAAAUUAAAAAAGUAAAGAAGAAAAAGAAAAAGAAACACAAAGAGAAU | 15.7
GUUGCCAGCUUCCGGUUCCGUUGGGCUCGGUUCUCUCCUGAGCUACGUGUCUCUACGCUCUCAAUCCGCCAUCCAACGGCAGUCAUGCAGGUAAUGCAGUUUGUGGAGCCCAGCCGGCAG | 0.0701
UUACCCGAGAACGAGGAUGAAUUGGAGAGCACCAACAGGCGCUACACCAAGAGGGACUGCAGCACUUUCCUCAGAACUAGUGAGACGGGCAUUGUGGACCAGGUCAUGGUCACUCUCAAC | 0.207
CCUGCUCAGAUCACCAUGAAAGUAAUCCAAGGCCUAUAUAGUGGGGUCACCACAGUGGAACUGGACACCCUGGCUGCUGAAACAGCUGCAACCUUGACCACGAAGCACCCUGACUAUGCC | 0.185
UUGCUACUGACUCCCUGGGUCAAGUUCCUGUGGGAAUCUUACAGGCAGUGUUUGGACCUUCUUCGAAACAAUUCUAGAGUAGAGCGCCUUUACCAUGAUAUCGCCCAGCAAGCUUUCAAA | 0.205
GUUCGGCUCUGGGAUCAUGCUACUAUGACAGAAGUGAAAUCUCUGAAUUUUAAUAUGUCUGUUAGCAGCAUGGAGUAUAUUCCUGAAGGAGAGAUUUUGGUUAUAACUUAUGGACGAUCU | 0.471
UUCAAAGAAAAGGGCAGUUCAUAAAUAUCAUAAGUAACUCUGGGGGAGGGAAAUUCUGUUCUUUUGUUUAAUUUUCCCCCAAAUGAAGCCAAAGUGUGUGUUGAAGAAGGAAGAAUGAAU | 0.343
GCGGCAGAAUCAUGGAGGACAUAAUGCAGCUCCCCAAGUCGCGCAUCAACGCCAGCAUGUUACCACAGUAUAUCGACCGGCCCGUGUGCUUCGUGGGGAAGCUGGAAAAGAUUCAUCCCA | 0.0887
AGAGCCCAGGACGUUGAUGCUACAAAUCCAAAUUACGAAAUUAUGUGUAUGAUCAGAGACUUUAGAGGGAGCUUGGAUUACAGACCCCUAACAACAGCAGAUCCUAUUGAUGAACAUAGG | 0.588
AGAGCCCAGGAUGUUGAUGCUACAAAUCCAAAUUACGAAAUUAUGUGUAUGAUCAGAGACUUCAGAGGGAGCUUGGAUUACAGACCCUUAACAACAGCAGAUCCUAUUGAUGAACAUAGG | 0.446

Sample 2
Target: PABPC1L2, full length, GST fusion (mouse, UniProt A0ABA7IW68)
Method: RNAcompete
Molecule type: RNA
Matrix: in vitro
Tested at: 20 nM
Setting: 7-mer, probes averaged, single round
Reference: mean of 7-mers
Reading: higher = stronger binding
Sequence | 7-mer Z-score
CCAAUGA | -0.0482
CACCGCU | -0.142
AUGAGUC | -0.269
AGUACUA | -0.141
GUCGACG | -0.182
AAGAUAG | 0.408
UCGCGGA | -0.153
CAGUUAU | -0.0826
UUUAGCU | -0.112
CGGAGAA | 0.363
GCAGUCA | -0.142
CUGCGUA | -0.197
GCAGCUA | -0.0518
UGGAGGA | 0.238
GUAAAAA | 11.5
AGGACUA | 0.191
UGGCAGG | 0.0932
GUCGCGG | -0.161
CGCGAUC | -0.257
AAUAGUC | 0.0732
ACUAAUG | -0.171
AGAAAUA | 2.73
UCAGACA | 0.0116
UGAAACC | -0.217
CGGCGGG | 0.193

Sample 3
Target: Hepatocyte nuclear factor 3-beta, forkhead domain (FOXA2, Homo sapiens, UniProt Q9Y261, residues 142-269)
Method: protein-binding microarray
Molecule type: double-stranded DNA, one strand shown
Matrix: in vitro
Tested at: not given
Setting: k-mer, scored over probes, only values ≥0.25
Reading: higher = stronger binding
Target sequence (chain): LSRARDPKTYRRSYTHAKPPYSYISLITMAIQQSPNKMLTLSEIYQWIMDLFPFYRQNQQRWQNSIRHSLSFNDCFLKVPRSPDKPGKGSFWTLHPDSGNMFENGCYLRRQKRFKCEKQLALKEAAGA
Sequence | E-score
ACATAGCA | 0.304
AAATAGAT | 0.284
AATGTGAT | 0.302
ACTGAATA | 0.287
TATTATAA | 0.296
GATGTTAC | 0.255
GTAATACA | 0.345
AAATGTGG | 0.289
AAATATGT | 0.407
AAACTACA | 0.28
AACTATTA | 0.253
ATGTTAAA | 0.307
AGATACAA | 0.345
AATATGTG | 0.372
GTTATTTA | 0.323
TAAACATA | 0.327
AAACGTAT | 0.257
TCCAACAA | 0.258

Sample 4
Target: RNA binding protein fox-1 homolog 2, RRM domain, GST-SBP tag (RBFOX2, Homo sapiens, UniProt O43251-10, residues 100-194)
Method: RNA Bind-n-Seq
Molecule type: RNA
Matrix: in vitro
Tested at: 365 nM
Setting: natural RNA segment, single round, ends assumed
Reference: no-protein control
Reading: higher = stronger binding
Shared flanks, not repeated: GGGAGUUCUACAGUCCGACGAUC … UGGAAUUCUCGGGUGCCAA
Residues (chain): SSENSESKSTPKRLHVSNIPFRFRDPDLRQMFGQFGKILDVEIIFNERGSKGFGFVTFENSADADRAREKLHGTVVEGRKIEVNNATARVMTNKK
Sequence | RBNS enrichment (R)
CAGUACCUCUGUGGUUAAAAAUGGAAACUGUUCUCCUCCCCAGCCCCACUCCCUGUUCCCUACCCAUAUAGGCCCUAAAUUUGGGAAAAAUCACUAUUAAUUUCUGAAUC | 0.572
AGUAGGAUUGUUGAUGAAAUUGAGCGGUUGGAACACCCUCAUGGAACACUGGCAACAUGGAAUGUAGAGAGCUGAUGUCUUCCCCCUCAUAGAGGCCAUUGGCUUCCUUU | 0.771
UCUUCCUCUGCUGUCGAGACGUUCCUGUCUGCUUCCCGGGAGCCUCACGUGCUCCUUGUCCUAACCAGCCCCCGCGCGCCAUCUUCCCGUGGAGUGUGGGGAAGCUGCUG | 0.225
UGGAUCCAGAUUUUAUGUUAACAUGGCAGCAAAACUAGGAAAAUGGGAAGAAAUUACUUGCGGGGUGUUCUAGAUCUGAUUUUUUUUUUUUUUUUGAAAGUUUCAGCCUG | 1
AGCUCAGUGAGUCAUGGAACGUCAGUUAGAAAACGAAGUUAGGGUCGUUUCUGGGAAGAGAAUCAAUACCUGUUAGAGCCAGAAUGCUCCAAGUCUUUUAGCUUGUUCAU | 0.669
CAUGUUGAUUCUUGUAAGCACUGGACUGUCUUCAUCAAGUAUUUCCCUACAGAACUCCUCAAGAAAACAGAGAUCAUUUGGCUAGAGAUUGUCUGAGUGACUCCAAGCUA | 0.393
AGUGAAUGGGAAACACAUGUUCCUCUCUCCAGGUUACACUGAAACCUGUGUAGUGUGUACAGAGUGGGUAGGGACUAAACACAGGCCUAGCGUCUAUGAGUCUGUAUUCC | 0.448
GUGCUAAUGUAGCUGAUUUUAGUCUCCUUGUCCCACUUACACUAUGCAGUAUCUCCUAACUUCAGUGCACUCUGCUAGAACAGUACAUUUGCUGUAUUUACUGAAAUCUC | 2.09
AUCUAGCACUUGCAGGCAUUCCAGGUAGAAGAGCUUUGCCCGUGCUCCAGCUAGCCUACACUGAUCCUGCCUAAGCAGGGUCCUGAACGCCGGAGACAGGGUCUGCUGGA | 0.331
UUGAAUAAUCAUGUGCUUAGUCCCUUGGAUUACUGCCACAUCAGUUUAACACGAUAUCAGCACAUUCCCUUGUCAUCAUCAAGGUGUUGGCUCAGAUUUAUUCUUAAUUG | 0.281
GUAGACUCACAAGUUUAACUGUUGUAUUAUAACAGUAUUACAUGUCAACAGUGUGGUUAUGACCUUUAUUUAUAUAAAAACCAAAUAUUUAGUCAAUUUACCGUGUCUUA | 0.634
AACUCUUUGUAGUUUUGUCAAAGACAAAUACUCUGUAAAGUCCCCCACCUACCCCAGAUCUACAGCUUUUUAGCUUUUAAUUUGAAUCAUCUGCAUAGUUGCUUGGAUCA | 0.387

Sample 5
Target: Sal-like protein 4, full length isoform B (SALL4, Homo sapiens, UniProt Q9UJQ4-2, residues 1-616)
Method: universal PBM
Molecule type: double-stranded DNA, one strand shown
Matrix: in vitro
Tested at: not given
Setting: 8-mer, flanks averaged, mean of replicates
Reading: higher = stronger binding
Sequence | E-score
CGGGACGA | -0.243
CAGCGGGC | -0.225
AATAGGTG | 0.132
AGTGTAAT | 0.255
GTAGCGGA | -0.161
CGAAAAAC | 0.023
GAACGTAC | -0.0682
AGCCATGC | -0.0673
ACAGTATA | 0.221
AAGTAAGA | 0.101
CGGCAGAA | -0.211
CAGATAAA | 0.153
CTAAAGAA | 0.00986
AAGCTTAC | 0.122
CCCGCTAA | -0.222
ATCAGCTC | 0.0142
ACTCGGAC | -0.126
GTAGAGGA | -0.107
ACCCTTCA | 0.0332
CGTCCTGC | -0.2
AAGTAGCG | -0.0681
AACTATGA | 0.248
CCACTAAG | -0.162
AGCATGAA | 0.0561

Sample 6
Target: Histone acetyltransferase KAT6A, both winged helices, GST fusion (KAT6A, Homo sapiens, UniProt Q92794, residues 1-181)
Method: protein binding microarray
Molecule type: double-stranded DNA, one strand shown
Matrix: in vitro
Tested at: not given
Setting: 8-mer, flanks averaged, mean of 2 arrays, mostly near background
Reference: not given
Reading: higher = stronger binding
Construct (chain): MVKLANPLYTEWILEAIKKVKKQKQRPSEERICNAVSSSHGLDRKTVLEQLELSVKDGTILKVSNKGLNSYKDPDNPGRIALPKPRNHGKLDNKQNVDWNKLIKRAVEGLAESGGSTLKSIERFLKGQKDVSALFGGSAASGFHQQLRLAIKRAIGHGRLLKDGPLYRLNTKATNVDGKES
Sequence | E-score
AAACCATC | 0.0335
GCTGTAGA | 0.0301
ACATAAAC | -0.0384
AAGGGGGT | -0.271
AAGGGTCT | -0.0739
CTCCGAGC | 0.072
CATTTCAA | -0.0898
AATGGGGC | -0.139
AATCGCAA | 0.133
CGTTGGCA | 0.107
GATCAGAC | -0.0617
CAATCGGA | -0.0447
GCCATCGA | 0.089
CACTAGCA | -0.229
ATTGCATA | -0.00172
GTTGAATA | -0.0129
CCAAGCTA | -0.225
ATGCCGCA | 0.202
CGGAGTAG | 0.0771
ACGACGCC | 0.232
ATGATCAC | -0.0376
ATGTACAC | -0.0644
CTCGCGAA | 0.0853
ATTCATTA | 0.0512
ATAGTCCG | 0.118

A few entries again (sample 5):
Sequence | E-score
CAGCGGGC | -0.225
CCACTAAG | -0.162
CCCGCTAA | -0.222
AACTATGA | 0.248
CGTCCTGC | -0.2
ACTCGGAC | -0.126
AGTGTAAT | 0.255
AAGTAAGA | 0.101
CGAAAAAC | 0.023
AATAGGTG | 0.132
AGCCATGC | -0.0673
CTAAAGAA | 0.00986
GAACGTAC | -0.0682
CAGATAAA | 0.153
AGCATGAA | 0.0561
ATCAGCTC | 0.0142
AAGTAGCG | -0.0681
CGGCAGAA | -0.211
